Measured values gathered from unrelated publications.
Compare with care: the assays were run in different laboratories. ± gives the spread as reported.

SMILES | assay | test system | setting | Cmax
CC(C)(Sc1ccncc1-c1ccc(C#N)c2ccccc12)C(=O)O | – | human, plasma | oral, 2.5 mg, added: febuxostat 80 mg | 3.37 ng/mL
CNC(=O)c1ccc(-c2cnc3ncc(Cc4ccc5ncccc5c4)n3n2)cc1F | – | healthy human subjects, plasma | oral, 400 mg, geometric mean, alone | 3070 ng/mL
O=C(c1cccnc1-c1ccncc1)N1CCC(O)(Cc2ccccc2)CC1 | – | healthy human, plasma | oral, 300 mg once daily, day 14, arithmetic mean | 3100 ng/mL
N[C@]1(C(=O)O)[C@H]2[C@@H](C[C@@H]1F)[C@@H]2C(=O)O | – | human, fed, plasma | oral, 20 mg multiple, day 14 | 77.8 ng/mL
N[C@@H](Cc1ccc(O)c(O)c1)C(=O)O | – | human, plasma | oral, 150 mg single, geometric LS mean, added: 37.5 mg carbidopa | 2440 ng/mL
COc1cc(F)c(F)c(Nc2ccc(I)cc2F)c1NS(=O)(=O)C1(C[C@H](O)CO)CC1 | – | human patients, plasma | oral, 50 mg twice daily, cycle 1 day 14 | 1220 ng/mL
COc1cc2ncnc(Nc3ccc(F)c(Cl)c3)c2cc1OCCCN1CCOCC1 | – | human, plasma | oral, 250 mg, added: vorinostat 400 mg | 295 ± 253 ng/mL
CCCCC1(CCCC)CN(c2ccccc2)c2cc(SC)c(OCC(=O)N[C@@H](C(=O)NCC(=O)O)c3ccccc3)cc2S(=O)(=O)C1 | LC-MS/MS | human, plasma | oral, 2.5 mg, single dose, fasted | 0.413 ng/mL
NS(=O)(=O)OC[C@@H]1C[C@@H](n2ccc3c(N[C@H]4CCc5ccccc54)ncnc32)C[C@@H]1O | – | human | intravenous, 20 mg/m^2, day 1 | 178 ng/mL
COc1cccc(-c2ccc(NC(=O)C3=C(C(=O)O)CCC3)c(F)c2)c1 | – | healthy male humans, plasma | oral, 30 mg once daily, day 13, geometric mean | 6540 ng/mL
O=C(c1ccc(OCCN2CCCCC2)cc1)c1c(-c2ccc(O)cc2)sc2cc(O)ccc12 | – | healthy humans, plasma | oral, 60 mg, added: acute green tea | 0.13 nM
CCc1nc(C(N)=O)c(Nc2ccc(N3CCC(N4CCN(C)CC4)CC3)c(OC)c2)nc1NC1CCOCC1 | – | human, moderate hepatic impairment, plasma | oral, 10 mg, single dose, fasted, geometric LS mean | 6.24 ng/mL
CS(=O)(=O)OC[C@H](O)[C@@H](O)COS(C)(=O)=O | – | human patients, plasma | intravenous infusion, 14 g/m^2, day -6, 2-hour infusion | 470000 ng/mL
CN(C)C(=N)N=C(N)N | – | human, both sexes, plasma | oral, dose not given | 2120 ± 548 ng/mL
CCOc1c([C@H](C)n2nc(C)c3c(N)ncnc32)cc(Cl)c(F)c1[C@@H]1CNC(=O)C1 | – | healthy fasted humans, plasma | oral, 20 mg | 1650 ± 272 nM
CCOc1ccc(Cc2cc([C@]34OC[C@](CO)(O3)[C@@H](O)[C@H](O)[C@H]4O)ccc2Cl)cc1 | – | human, plasma | oral, 0.5 to 300 mg, pooled data | 6.1 to 5160 ng/mL
CCN(c1cc(-c2ccc(CN3CCOCC3)cc2)cc(C(=O)NCc2c(C)cc(C)[nH]c2=O)c1C)C1CCOCC1 | – | human, plasma | oral, 800 mg twice daily, multiple doses, cycle 1 day 15 | 1290 ng/mL
Cn1ncc(Cl)c1-c1cc(C(=O)N[C@H](CN)Cc2ccc(F)c(F)c2)oc1Cl | – | human patients, plasma | oral, 20 mg, single dose, fasting | 14.6 ng/mL

Excerpt of the above:
SMILES | assay | test system | setting | Cmax
COc1cccc(-c2ccc(NC(=O)C3=C(C(=O)O)CCC3)c(F)c2)c1 | – | healthy male humans, plasma | oral, 30 mg once daily, day 13, geometric mean | 6540 ng/mL
COc1cc(F)c(F)c(Nc2ccc(I)cc2F)c1NS(=O)(=O)C1(C[C@H](O)CO)CC1 | – | human patients, plasma | oral, 50 mg twice daily, cycle 1 day 14 | 1220 ng/mL
